Measured values collected from several papers.
Every numbered part comes from another study and shows a few of its results, in no order.
UniProt P10721, sequence (whole entry, unmodified, looked up): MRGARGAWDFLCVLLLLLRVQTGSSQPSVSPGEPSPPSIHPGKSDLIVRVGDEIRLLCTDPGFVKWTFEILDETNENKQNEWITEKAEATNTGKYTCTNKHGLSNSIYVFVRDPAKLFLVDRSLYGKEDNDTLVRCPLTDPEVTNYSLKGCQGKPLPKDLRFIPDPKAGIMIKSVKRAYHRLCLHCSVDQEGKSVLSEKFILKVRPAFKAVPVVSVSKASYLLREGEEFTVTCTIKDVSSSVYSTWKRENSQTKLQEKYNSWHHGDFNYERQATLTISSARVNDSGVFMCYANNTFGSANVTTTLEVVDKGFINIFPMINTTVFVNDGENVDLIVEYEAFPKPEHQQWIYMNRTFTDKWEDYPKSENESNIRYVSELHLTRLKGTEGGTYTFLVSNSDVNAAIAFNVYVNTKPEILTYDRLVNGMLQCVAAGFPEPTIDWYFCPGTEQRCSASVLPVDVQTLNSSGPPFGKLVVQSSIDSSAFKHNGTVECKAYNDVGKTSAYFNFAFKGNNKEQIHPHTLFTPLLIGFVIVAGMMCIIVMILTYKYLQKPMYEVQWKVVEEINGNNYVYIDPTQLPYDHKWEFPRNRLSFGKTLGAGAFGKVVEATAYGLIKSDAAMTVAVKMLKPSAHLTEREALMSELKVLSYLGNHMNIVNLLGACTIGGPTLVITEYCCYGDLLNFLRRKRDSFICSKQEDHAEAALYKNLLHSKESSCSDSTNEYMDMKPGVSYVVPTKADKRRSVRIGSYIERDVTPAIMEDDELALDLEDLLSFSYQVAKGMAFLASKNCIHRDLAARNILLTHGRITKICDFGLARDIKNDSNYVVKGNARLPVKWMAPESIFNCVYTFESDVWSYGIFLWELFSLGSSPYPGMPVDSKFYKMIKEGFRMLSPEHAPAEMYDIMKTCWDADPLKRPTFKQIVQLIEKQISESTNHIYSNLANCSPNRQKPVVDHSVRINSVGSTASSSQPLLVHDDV
UniProt P49761, sequence (whole entry, looked up): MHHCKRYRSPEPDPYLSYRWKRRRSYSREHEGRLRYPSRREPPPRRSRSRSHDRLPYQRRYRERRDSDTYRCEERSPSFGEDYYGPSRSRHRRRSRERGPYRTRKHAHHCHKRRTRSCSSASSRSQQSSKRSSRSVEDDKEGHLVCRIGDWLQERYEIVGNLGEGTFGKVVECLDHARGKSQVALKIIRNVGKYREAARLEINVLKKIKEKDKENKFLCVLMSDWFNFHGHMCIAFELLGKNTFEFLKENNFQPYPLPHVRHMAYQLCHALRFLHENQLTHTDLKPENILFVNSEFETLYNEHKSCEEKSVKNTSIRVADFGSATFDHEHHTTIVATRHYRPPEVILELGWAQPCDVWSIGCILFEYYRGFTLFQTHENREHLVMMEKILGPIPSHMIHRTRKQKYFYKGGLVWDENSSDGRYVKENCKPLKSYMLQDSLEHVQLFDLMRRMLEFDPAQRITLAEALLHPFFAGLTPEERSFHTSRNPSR
UniProt Q6P2M8, sequence (whole entry, looked up): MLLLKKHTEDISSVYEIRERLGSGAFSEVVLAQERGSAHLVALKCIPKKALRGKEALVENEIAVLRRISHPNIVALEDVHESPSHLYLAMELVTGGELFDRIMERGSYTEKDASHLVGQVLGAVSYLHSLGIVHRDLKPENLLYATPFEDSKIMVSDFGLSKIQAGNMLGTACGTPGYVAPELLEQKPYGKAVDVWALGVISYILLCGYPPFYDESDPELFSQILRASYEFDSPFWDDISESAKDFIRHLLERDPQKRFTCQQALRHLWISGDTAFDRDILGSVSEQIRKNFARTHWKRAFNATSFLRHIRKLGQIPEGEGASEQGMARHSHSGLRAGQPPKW
UniProt Q02750, sequence (whole entry, looked up): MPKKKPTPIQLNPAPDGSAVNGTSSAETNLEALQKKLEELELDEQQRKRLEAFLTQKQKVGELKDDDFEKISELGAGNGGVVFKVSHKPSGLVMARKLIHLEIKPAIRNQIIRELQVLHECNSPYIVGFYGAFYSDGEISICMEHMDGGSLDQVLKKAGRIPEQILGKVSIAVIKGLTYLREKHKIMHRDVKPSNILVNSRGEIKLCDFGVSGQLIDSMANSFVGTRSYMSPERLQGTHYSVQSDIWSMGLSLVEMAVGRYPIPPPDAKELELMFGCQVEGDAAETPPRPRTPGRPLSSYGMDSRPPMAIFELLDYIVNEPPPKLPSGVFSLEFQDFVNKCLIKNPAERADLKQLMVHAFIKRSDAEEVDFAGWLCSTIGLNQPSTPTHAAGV
UniProt P21802, sequence (whole entry, looked up): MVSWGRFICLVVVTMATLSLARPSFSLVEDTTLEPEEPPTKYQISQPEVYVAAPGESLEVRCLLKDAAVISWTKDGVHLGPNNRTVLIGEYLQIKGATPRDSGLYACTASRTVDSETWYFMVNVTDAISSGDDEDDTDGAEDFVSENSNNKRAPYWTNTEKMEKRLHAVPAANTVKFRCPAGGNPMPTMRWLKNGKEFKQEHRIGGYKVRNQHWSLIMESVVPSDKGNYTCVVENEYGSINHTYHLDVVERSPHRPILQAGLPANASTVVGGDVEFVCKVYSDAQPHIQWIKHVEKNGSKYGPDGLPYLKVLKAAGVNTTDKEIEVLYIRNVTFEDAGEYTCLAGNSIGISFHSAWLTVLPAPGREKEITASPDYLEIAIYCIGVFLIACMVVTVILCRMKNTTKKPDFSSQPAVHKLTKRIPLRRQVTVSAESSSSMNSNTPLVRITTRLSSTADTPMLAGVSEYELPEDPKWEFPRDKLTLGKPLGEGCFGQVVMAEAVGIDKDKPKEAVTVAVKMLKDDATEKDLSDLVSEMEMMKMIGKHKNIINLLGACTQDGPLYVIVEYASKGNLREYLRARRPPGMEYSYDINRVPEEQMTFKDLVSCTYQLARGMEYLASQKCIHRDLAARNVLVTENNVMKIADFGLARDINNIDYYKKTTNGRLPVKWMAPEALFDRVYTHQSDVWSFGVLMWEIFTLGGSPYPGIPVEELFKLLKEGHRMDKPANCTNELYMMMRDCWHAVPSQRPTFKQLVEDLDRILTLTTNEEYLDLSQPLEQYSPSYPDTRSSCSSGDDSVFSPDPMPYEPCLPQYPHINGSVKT
UniProt Q7KZI7, sequence (whole entry, looked up): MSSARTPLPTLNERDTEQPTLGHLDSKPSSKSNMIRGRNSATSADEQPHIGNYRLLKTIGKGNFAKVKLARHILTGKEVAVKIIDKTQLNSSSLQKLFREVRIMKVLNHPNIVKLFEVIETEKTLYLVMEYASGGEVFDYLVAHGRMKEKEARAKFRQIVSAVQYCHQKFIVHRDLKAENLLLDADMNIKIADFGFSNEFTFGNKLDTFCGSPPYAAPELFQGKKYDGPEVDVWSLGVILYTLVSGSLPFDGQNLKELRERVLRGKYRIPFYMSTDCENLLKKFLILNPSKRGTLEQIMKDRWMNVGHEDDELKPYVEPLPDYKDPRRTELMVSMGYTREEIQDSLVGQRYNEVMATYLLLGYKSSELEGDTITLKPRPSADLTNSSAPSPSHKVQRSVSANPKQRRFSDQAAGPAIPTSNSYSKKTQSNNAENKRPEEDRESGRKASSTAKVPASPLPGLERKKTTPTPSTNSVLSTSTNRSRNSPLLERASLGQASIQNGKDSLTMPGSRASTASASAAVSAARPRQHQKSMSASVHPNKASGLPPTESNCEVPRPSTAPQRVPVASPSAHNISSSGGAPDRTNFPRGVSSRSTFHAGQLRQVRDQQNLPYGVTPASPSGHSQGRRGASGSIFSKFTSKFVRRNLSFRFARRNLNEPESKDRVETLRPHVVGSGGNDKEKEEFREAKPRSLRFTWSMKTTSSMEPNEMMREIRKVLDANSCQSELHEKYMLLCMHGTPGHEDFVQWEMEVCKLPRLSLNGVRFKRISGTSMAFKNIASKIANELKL
UniProt P04049, sequence (whole entry, looked up): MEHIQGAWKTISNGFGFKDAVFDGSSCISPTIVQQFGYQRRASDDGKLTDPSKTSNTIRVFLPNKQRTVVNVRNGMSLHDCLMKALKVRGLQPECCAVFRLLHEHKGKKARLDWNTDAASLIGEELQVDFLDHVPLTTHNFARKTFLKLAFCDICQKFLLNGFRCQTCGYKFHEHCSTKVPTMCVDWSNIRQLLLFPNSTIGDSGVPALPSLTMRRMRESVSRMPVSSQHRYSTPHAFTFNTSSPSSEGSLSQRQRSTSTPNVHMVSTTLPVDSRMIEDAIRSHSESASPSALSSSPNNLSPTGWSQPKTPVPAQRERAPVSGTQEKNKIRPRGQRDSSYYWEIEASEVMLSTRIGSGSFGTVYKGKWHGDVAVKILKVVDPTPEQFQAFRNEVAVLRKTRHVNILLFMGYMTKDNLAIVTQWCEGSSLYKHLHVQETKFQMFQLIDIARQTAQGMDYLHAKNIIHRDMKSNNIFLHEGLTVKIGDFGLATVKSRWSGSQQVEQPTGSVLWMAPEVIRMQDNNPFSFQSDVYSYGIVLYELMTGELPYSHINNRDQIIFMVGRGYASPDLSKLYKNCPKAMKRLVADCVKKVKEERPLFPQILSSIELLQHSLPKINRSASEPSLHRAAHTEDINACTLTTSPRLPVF

Series 1
Compound: O=C1CCc2cc(Nc3cc(OC4CCOCC4)c([N+](=O)[O-])cc3Cl)ccc2N1
Observed: cell-free assay
Technique: competition with immobilised ligand
Tested at: 1 µM
target	remaining binding [%]
HIPK1 (Homo sapiens, UniProt Q86Z02)	95
RAF1 (Homo sapiens, UniProt P04049)	98
KIT (Homo sapiens, UniProt P10721, D816V)	100
FGFR2 (Homo sapiens, UniProt P21802)	100
PIK3CA (Homo sapiens, UniProt P42336, H1047Y)	100
KIT (Homo sapiens, UniProt P10721, L576P)	100
MAP2K2 (Homo sapiens, UniProt P36507)	73
MAP3K14 (Homo sapiens, UniProt Q99558)	81

Series 2
Target: Bromodomain-containing protein 4, BD1 (BRD4, Homo sapiens, UniProt O60885)
Observed: acetyl-histone H4 peptide binding
Technique: AlphaScreen displacement
Tested at: 50 µM
Structure (SMILES)	inhibition [%]
Cc1c(C(=O)OC(C)C)sc2nc[nH]c(=O)c12	1.8
CCCOc1ccc(NC(=O)Nc2ccc(Cl)c(Cl)c2)cc1	3.85
O=C1NCCc2[nH]c(-c3ccnc(-c4cnc5ccccc5c4)c3)cc21	18.8
Cc1c(C(N)=O)sc2nc[nH]c(=O)c12	-3.05
O=C(CSc1ccc2nnc(-c3cccc(F)c3)n2n1)Nc1cccc(Cl)c1	2.8
O=C(NNC(=O)c1c(O)c2ccccc2[nH]c1=O)c1ccccc1[N+](=O)[O-]	18.2
N#CCCc1ccc2c(c1)-c1[nH]c3ccc([N+](=O)[O-])cc3c1CC(=O)N2	15.5
COc1ccc(Nc2nccc(-c3cccc(C#N)c3)n2)cc1	12.2
COc1cccc(Nc2ncc3c(n2)CCNC3)c1	10.7

Series 3
SMILES: Nc1nccc(-c2c(-c3ccc(F)cc3)ncn2C2CCNCC2)n1
Observed: enzyme activity
Mode: inhibitor
Tested at: 0.5 µM
Relative to: control
target	remaining activity
DCLK2 (Homo sapiens, UniProt Q8N568)	99.9%
MAP2K1 (Homo sapiens, UniProt Q02750)	98.2%
TLK2 (Homo sapiens, UniProt Q86UE8)	95.1%
Myosin-IIIb (MYO3B, Homo sapiens, UniProt Q8WXR4)	97.9%
MINK1 (Homo sapiens, UniProt Q8N4C8)	96.1%
MARK2 (Homo sapiens, UniProt Q7KZI7)	97%
CDC42BPB (Homo sapiens, UniProt Q9Y5S2)	101%
ROCK1 (Homo sapiens, UniProt Q13464)	103%
PNCK (Homo sapiens, UniProt Q6P2M8)	94.3%
CLK3 (Homo sapiens, UniProt P49761)	102%
MAPK1 (Homo sapiens, UniProt P28482)	96.6%
DDR2 (Homo sapiens, UniProt Q16832)	107%
RPS6KA4 (Homo sapiens, UniProt O75676)	98.7%

Series 4
Target: Beta-1 adrenergic receptor (ADRB1, Homo sapiens, UniProt P08588)
UniProt P08588, sequence (whole entry, looked up): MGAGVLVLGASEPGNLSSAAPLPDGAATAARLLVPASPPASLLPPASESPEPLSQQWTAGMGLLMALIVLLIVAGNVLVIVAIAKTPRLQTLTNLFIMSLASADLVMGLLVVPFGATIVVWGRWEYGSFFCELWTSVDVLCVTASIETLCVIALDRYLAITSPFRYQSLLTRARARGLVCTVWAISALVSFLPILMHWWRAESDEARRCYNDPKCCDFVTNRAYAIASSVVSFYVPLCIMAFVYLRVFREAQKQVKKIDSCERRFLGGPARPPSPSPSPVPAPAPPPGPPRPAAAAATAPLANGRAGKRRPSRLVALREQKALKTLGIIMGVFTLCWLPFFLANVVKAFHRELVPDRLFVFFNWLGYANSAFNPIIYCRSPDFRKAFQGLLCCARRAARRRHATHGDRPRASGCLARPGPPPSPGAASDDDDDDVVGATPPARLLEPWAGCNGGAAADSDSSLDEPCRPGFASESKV
Mode: agonist
SMILES	EC50
CN(c1ccccc1)c1cc(=O)c2ccnc(Nc3cccnc3)c2o1	≥ 100 µM
O=C(Cc1ccccc1)Nc1ccc([C@@H](O)[C@H]2COCC(=O)N2Cc2ccccc2)cc1	≥ 100 µM
Cc1noc2c(NC3CCOCC3)cc(-c3ccccn3)nc12	≥ 100 µM
O=C(CCc1ccccc1)Nc1ccc([C@@H](O)[C@H]2COCC(=O)N2Cc2ccncc2)cc1	≥ 100 µM
Nc1nc(N)c2nc(-c3ccccc3)c(N)nc2n1	≥ 100 µM
COCc1nc(NCCc2nc(-c3ccccn3)no2)c2cnn(C)c2n1	≥ 100 µM

A few entries again (series 2):
Structure (SMILES)	inhibition [%]
O=C(NNC(=O)c1c(O)c2ccccc2[nH]c1=O)c1ccccc1[N+](=O)[O-]	18.2
N#CCCc1ccc2c(c1)-c1[nH]c3ccc([N+](=O)[O-])cc3c1CC(=O)N2	15.5
COc1ccc(Nc2nccc(-c3cccc(C#N)c3)n2)cc1	12.2
